Results gathered from unrelated publications.
Parts stem from different laboratories: compare values within a part only.

Series 1
Target: Histone acetyltransferase KAT6A, winged helix 2, GST fusion (KAT6A, Homo sapiens, UniProt Q92794, residues 85-181)
Method: protein binding microarray
Molecule type: double-stranded DNA, one strand shown
Sample: in vitro
Concentration: not given
Setting: 8-mer, flanks averaged, mean of 2 arrays, mostly near background
Reference: not given
Reading: higher = stronger binding
Endpoint: E-score
Residues (chain): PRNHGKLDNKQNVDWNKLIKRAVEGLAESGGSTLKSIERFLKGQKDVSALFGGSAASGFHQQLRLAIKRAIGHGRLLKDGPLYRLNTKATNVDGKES
CTATCACA: -0.025
CGCTCCTC: 0.0546
ACAATCAT: -0.113
AATGGAGG: -0.112
GACCAACC: 0.0771
ATGCTATC: 0.00428

Series 2
Target: Sal-like protein 4, full length isoform A (SALL4, Homo sapiens, UniProt Q9UJQ4, residues 1-1053)
Sequence of UniProt Q9UJQ4 (whole entry, looked up): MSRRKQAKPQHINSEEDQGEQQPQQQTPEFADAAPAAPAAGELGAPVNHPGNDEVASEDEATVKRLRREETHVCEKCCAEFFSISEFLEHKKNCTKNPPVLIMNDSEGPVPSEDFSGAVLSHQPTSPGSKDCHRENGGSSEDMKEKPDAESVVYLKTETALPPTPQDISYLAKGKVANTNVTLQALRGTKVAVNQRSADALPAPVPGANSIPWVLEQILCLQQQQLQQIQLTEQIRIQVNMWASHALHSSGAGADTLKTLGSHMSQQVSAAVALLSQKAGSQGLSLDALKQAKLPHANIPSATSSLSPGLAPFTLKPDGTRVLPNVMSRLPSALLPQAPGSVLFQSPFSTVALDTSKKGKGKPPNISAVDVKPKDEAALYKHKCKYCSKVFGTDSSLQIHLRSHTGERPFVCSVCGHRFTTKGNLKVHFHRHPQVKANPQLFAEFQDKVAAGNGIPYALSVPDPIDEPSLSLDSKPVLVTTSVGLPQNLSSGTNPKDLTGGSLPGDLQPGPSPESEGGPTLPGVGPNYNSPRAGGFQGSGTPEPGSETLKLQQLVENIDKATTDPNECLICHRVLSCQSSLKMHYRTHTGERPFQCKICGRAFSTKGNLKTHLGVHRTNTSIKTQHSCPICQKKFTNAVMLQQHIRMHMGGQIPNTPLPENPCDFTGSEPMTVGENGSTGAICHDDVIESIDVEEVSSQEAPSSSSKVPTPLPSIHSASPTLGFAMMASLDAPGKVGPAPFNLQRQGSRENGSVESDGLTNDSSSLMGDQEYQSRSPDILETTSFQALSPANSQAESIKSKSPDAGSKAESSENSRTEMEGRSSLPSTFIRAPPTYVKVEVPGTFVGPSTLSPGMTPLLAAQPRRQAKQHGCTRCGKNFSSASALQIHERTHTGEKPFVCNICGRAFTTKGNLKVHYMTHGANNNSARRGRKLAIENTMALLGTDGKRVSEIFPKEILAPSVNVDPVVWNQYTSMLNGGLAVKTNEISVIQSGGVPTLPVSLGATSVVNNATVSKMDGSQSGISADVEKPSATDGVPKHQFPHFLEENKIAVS
Method: universal PBM
Molecule type: double-stranded DNA, one strand shown
Sample: in vitro
Concentration: 600 nM
Setting: 8-mer, flanks averaged, mean of replicates
Reading: higher = stronger binding
Endpoint: E-score
CCTAACCG: -0.319
CACACTTC: -0.0478
ATCACTAA: 0.17

Series 3
Target: Interferon regulatory factor 7, full length, phosphomimetic (IRF7, Homo sapiens, UniProt Q92985, residues 1-503, S101K/S471D/S472D/S475D/S476D/S477D/S483D/S484D/S487D)
Sequence of UniProt Q92985 (whole entry, unmodified, looked up): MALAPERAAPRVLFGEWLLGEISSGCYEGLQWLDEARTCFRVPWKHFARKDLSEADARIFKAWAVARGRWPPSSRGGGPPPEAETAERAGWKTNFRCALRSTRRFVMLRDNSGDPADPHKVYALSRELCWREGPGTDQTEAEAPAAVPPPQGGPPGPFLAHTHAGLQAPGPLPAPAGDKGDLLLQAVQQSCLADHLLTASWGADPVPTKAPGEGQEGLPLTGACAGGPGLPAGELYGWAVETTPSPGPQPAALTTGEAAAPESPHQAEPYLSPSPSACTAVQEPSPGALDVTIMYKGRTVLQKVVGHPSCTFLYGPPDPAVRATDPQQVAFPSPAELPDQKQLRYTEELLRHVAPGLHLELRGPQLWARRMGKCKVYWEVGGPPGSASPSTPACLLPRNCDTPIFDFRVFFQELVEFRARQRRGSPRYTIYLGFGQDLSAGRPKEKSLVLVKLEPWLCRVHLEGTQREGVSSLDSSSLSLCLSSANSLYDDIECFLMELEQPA
Method: protein-binding microarray
Molecule type: double-stranded DNA, one strand shown
Sample: in vitro
Concentration: 250 nM
Setting: 60-bp whole probe
With: salmon DNA 0.4 mg/ml
Reference: random background probes
Reading: higher = stronger binding
Endpoint: log fluorescence
Constant ends, left off below: GCCTAGCAC … GTCTTGATTCGCTTGACGCTGCTG
AACGGTATCGGGTTTCGGGACGTGCTA: 3.76 z-score
TTAGGACTGGGCCTCGGTTAGTGCTAG: 0.17 z-score
TCAAATATTTACCTCTCACTGTGCTAG: 0.538 z-score
GACGATCTCGGTATCGGGACGTGCTAG: 0.325 z-score
TTAGGCCTGGGGTATCGGTTAGTGCTA: 0.258 z-score

Mixed results
PhoQ, residues 284 288 289 292 302 303 HSYLQF
fold induction (PhoP, residues 12 14 15 18 19 TPWLV (Escherichia coli, UniProt P23836); Sort-seq, refers to: YFP reporter; E. coli; PhoQ-PhoP variant library, with: 10 µM Mg2+; reference: high Mg2+ state, higher = stronger signaling): 1.12

A few entries again (mixed results):
PhoQ, residues 284 288 289 292 302 303 HSYLQF
fold induction (PhoP, residues 12 14 15 18 19 TPWLV (Escherichia coli, UniProt P23836); Sort-seq, refers to: YFP reporter; E. coli; PhoQ-PhoP variant library, with: 10 µM Mg2+; reference: high Mg2+ state, higher = stronger signaling): 1.12
